Assay results pooled from the literature.
Each numbered part is a random draw from the data of one study; scales do not carry over between parts. Changes are numbered by the printed parent chain.

Series 1
Target: CCNF, cyclin fold, Cln2 fusion (human)
Technique: yeast growth competition, sequencing
Sample: yeast
Setting: strong parent motif
Baseline: not given
Direction: higher = stronger binding
Starting sequence: SLBP docking peptide (human); ARYKRKLLINDFG
`ARYKRKPLINDFG [L7P]`: “normalised enrichment score” 1.69.
Under “normalised enrichment score”, `ARYWRKLLINDFG [K4W]` is recorded as 2.84.
For `ARYKRGLLINDFG [K6G]`, “normalised enrichment score” read 1.3.
Under “normalised enrichment score”, `ARYKRTLLINDFG [K6T]` is recorded as 1.78.
`ARYKRKLLINDFF [G13F]` — result for “normalised enrichment score”: 2.09.
`AGYKRKLLINDFG [R2G]`: “normalised enrichment score” 2.12.
For `WRYKRKLLINDFG [A1W]`, “normalised enrichment score” read 2.23.

Series 2
Target: RNA binding protein fox-1 homolog 2, RRM domain, GST-SBP tag (RBFOX2, Homo sapiens, UniProt O43251-10, residues 100-194)
Technique: RNA Bind-n-Seq
Form: RNA
Sample: in vitro
Concentration: 365 nM
Setting: natural RNA segment, single round, ends assumed
Baseline: no-protein control
Direction: higher = stronger binding
All sequences stand within: GGGAGUUCUACAGUCCGACGAUC … UGGAAUUCUCGGGUGCCAA
Target sequence (chain): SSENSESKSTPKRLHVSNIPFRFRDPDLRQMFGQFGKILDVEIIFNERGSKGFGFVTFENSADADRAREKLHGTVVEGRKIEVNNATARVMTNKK
For `UUAACUUUUCUGAUGCCUUAAAAGUGAACUUCUUUAAAGAACCUUUGUGCUAUUUUAUCACAGGCUUACACUACAAUUGUUAAUAAAUACUUCAUUUGGAGAUGUAUGGU`, “RBNS enrichment (R)” read 0.312.
For `AUUCCAUUCGCAAAUCUCUACUAUCAGGAGAGAAAAGAGAUGAAAUUUAAAACACACAAGCAAAACGUUUCCAUGUAAACAUCUAUUUCUAAACUUAUAUAAUGACCUGA`, “RBNS enrichment (R)” read 0.499.
Under “RBNS enrichment (R)”, `AGUUGGGGGGUAGUGGAUCUUAGUGUGGUGUUGCAUGGAGGGGCGAGAUUUUAUAUUUAUAAUCAACACGUGGGUUAACAUGUUUUUUUGAAAUCCAAGCAAUACACAGG` is recorded as 1.22.
`AUGGAGCAGUGGGGAGACACCAGGGCUGCAUUAUUUGAAUUAUUUUGCAGCCACAUGGGACUUUUCUGGGUUGACAAGAGGAUGCUCUAGUCAUGUAAGCCACUAAGAUA`: “RBNS enrichment (R)” 0.419.
`AAAUGCCAGUUUGGCAAACUCAGCACUCCUGUUCCCUGCUCAGGUAUAUGCGAUCUCUACCGAGAAGCAAGCACAAAAGUAGACAAAAGUAUUAAUGAGUAUUUCCUUUC`: “RBNS enrichment (R)” 0.341.
`GGGGGAAAAGAAGAAAAAGUACCUAACACAAGCUUCCUUUUUGCACAACCGGUCCUCUUGGCUGAGGAGGAGGAGCUGGUCACCCUGGCUGCACAGUUAGAGAGGGGAGA`: “RBNS enrichment (R)” 0.853.

Series 3
Target: Histone acetyltransferase KAT6A, winged helix 2, GST fusion (KAT6A, Homo sapiens, UniProt Q92794, residues 85-181)
Technique: protein binding microarray
Form: double-stranded DNA, one strand shown
Sample: in vitro
Concentration: not given
Setting: 8-mer, flanks averaged, mean of 2 arrays, mostly near background
Baseline: not given
Direction: higher = stronger binding
Residues (chain): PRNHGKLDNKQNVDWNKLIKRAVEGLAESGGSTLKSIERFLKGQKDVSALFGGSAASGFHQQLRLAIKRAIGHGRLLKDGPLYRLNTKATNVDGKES
`AAAGTCCG` gave an E-score of 0.0341.
For `ACACTTAT`, the E-score was -0.235.
For `GTGATCGA`, the E-score was 0.112.
The E-score of `CCGGAAGC` is reported as 0.23.
`AGCCGTTC` gave an E-score of -0.12.
For `CACCTGGC`, the E-score was 0.0731.
`GCACTGCA` gave an E-score of 0.113.

Other studies, line by line
With `PhoQ, residues 284 288 289 292 302 303 GASLAW` the fold induction was 3.1 (PhoP, residues 12 14 15 18 19 NQFFI (Escherichia coli, UniProt P23836); Sort-seq, measured: YFP reporter; E. coli; PhoQ-PhoP variant library, with: 10 µM Mg2+; baseline: high Mg2+ state, higher = stronger signaling).

Repeated from above (series 2):
`AAAUGCCAGUUUGGCAAACUCAGCACUCCUGUUCCCUGCUCAGGUAUAUGCGAUCUCUACCGAGAAGCAAGCACAAAAGUAGACAAAAGUAUUAAUGAGUAUUUCCUUUC`: “RBNS enrichment (R)” 0.341.
`GGGGGAAAAGAAGAAAAAGUACCUAACACAAGCUUCCUUUUUGCACAACCGGUCCUCUUGGCUGAGGAGGAGGAGCUGGUCACCCUGGCUGCACAGUUAGAGAGGGGAGA`: “RBNS enrichment (R)” 0.853.
